{"data": "Results from different studies", "note": "Every numbered part comes from another study and shows a few of its results, in no order. Substitutions count along the parent as printed."}
{"data": "Set 1", "target": "Histone acetyltransferase KAT6A, winged helix 2, GST fusion (KAT6A, Homo sapiens, UniProt Q92794, residues 85-181)", "method": "protein binding microarray", "molecule type": "double-stranded DNA, one strand shown", "sample": "in vitro", "tested at": "not given", "setting": "8-mer, flanks averaged, mean of 2 arrays, mostly near background", "reference": "not given", "reading": "higher = stronger binding", "Target sequence (chain)": "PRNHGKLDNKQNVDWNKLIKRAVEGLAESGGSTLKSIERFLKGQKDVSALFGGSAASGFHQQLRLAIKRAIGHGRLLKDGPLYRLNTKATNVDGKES"}
{"Strand": "ATTGGTCA", "E-score": -0.206}
{"Strand": "AGCACTGA", "E-score": 0.00246}
{"Strand": "CTTAAGTC", "E-score": -0.136}
{"Strand": "GCCGGCAA", "E-score": 0.0851}
{"Strand": "ACTTATCA", "E-score": -0.0906}
{"Strand": "GTCGACAC", "E-score": 0.00766}
{"Strand": "AAATTGGT", "E-score": 0.0239}
{"Strand": "CGCTACAG", "E-score": -0.102}
{"Strand": "AGCAGATC", "E-score": 0.129}
{"Strand": "CCGCACCA", "E-score": 0.184}
{"Strand": "GTATAAAC", "E-score": 0.132}
{"Strand": "CCTCGCCG", "E-score": 0.177}
{"Strand": "CCCCCCCA", "E-score": 0.0264}
{"data": "Set 2", "target": "CCND2, cyclin fold, Cln2 fusion (human)", "method": "yeast growth competition, sequencing", "sample": "yeast", "setting": "weak parent motif", "reference": "not given", "reading": "higher = stronger binding", "starting sequence": "MASTL docking peptide (human); PMIAKNLMCELDE"}
{"Variant": "K5N", "normalised enrichment score": 0.0648}
{"Variant": "M2V", "normalised enrichment score": -0.0971}
{"Variant": "C9D", "normalised enrichment score": -0.147}
{"Variant": "K5Q", "normalised enrichment score": -0.169}
{"Variant": "L11R", "normalised enrichment score": -0.148}
{"Variant": "K5L", "normalised enrichment score": 0.383}
{"Variant": "D12A", "normalised enrichment score": 0.293}
{"Variant": "L11K", "normalised enrichment score": -0.132}
{"Variant": "D12W", "normalised enrichment score": -0.0403}
{"Variant": "C9A", "normalised enrichment score": 0.0299}
{"Variant": "I3R", "normalised enrichment score": -0.0852}
{"Variant": "A4T", "normalised enrichment score": 0.065}
{"data": "Set 3", "target": "Interferon regulatory factor 5, full length, phosphomimetic (IRF5, Homo sapiens, UniProt Q13568-2, residues 1-514, S451D/S453D/S456D/S462D)", "method": "protein-binding microarray", "molecule type": "double-stranded DNA, one strand shown", "sample": "in vitro", "tested at": "940 nM top", "setting": "60-bp whole probe", "with": "salmon DNA 0.4 mg/ml", "reference": "random background probes", "reading": "higher = stronger binding", "all sequences stand within": "GCCTAGCAC … GTCTTGATTCGCTTGACGCTGCTG"}
{"Strand": "TTTGATATCGGGTTTCGATTAGTGCTA", "fitted relative affinity": "5.42 z-score"}
{"Strand": "TTAGAACTGGGGTTTCGAATAGTGCTA", "fitted relative affinity": "1.78 z-score"}
{"Strand": "GACGGTATCGTCTATCGGGACGTGCTA", "fitted relative affinity": "3.04 z-score"}
{"Strand": "GCCGGTCTCGGTTTCGGGACGTGCTAG", "fitted relative affinity": "7.14 z-score"}
{"Strand": "GACAGACTGGGGTTTCGGGACGTGCTA", "fitted relative affinity": "1.84 z-score"}
{"Strand": "TCATTTCTACGTCTGATACTGTGCTAG", "fitted relative affinity": "0.525 z-score"}
{"Strand": "GACGATTACGGGTTTCGAGACGTGCTA", "fitted relative affinity": "1.44 z-score"}
{"Strand": "TTAGGTATCTGGTTTCGGTTAGTGCTA", "fitted relative affinity": "8.53 z-score"}
{"Strand": "TTAGGTACCGGTATCGGTTAGTGCTAG", "fitted relative affinity": "5.27 z-score"}
{"Strand": "ACAGAACTCAACTGTCTGCCTGTGCTA", "fitted relative affinity": "0.0461 z-score"}
{"data": "Other studies, line by line"}
{"Molecule": "PhoQ, residues 284 288 289 292 302 303 AMDMFI", "target": "PhoP, residues 12 14 15 18 19 VQALL (Escherichia coli, UniProt P23836)", "assay": "Sort-seq, refers to: YFP reporter", "system": "E. coli", "conditions": "PhoQ-PhoP variant library, with: 10 µM Mg2+", "how to read": "reference: high Mg2+ state, higher = stronger signaling", "quantity": "fold induction", "value": 0.712}
{"note": "Some of these lines once more (set 3):"}
{"Strand": "TCATTTCTACGTCTGATACTGTGCTAG", "fitted relative affinity": "0.525 z-score"}
{"Strand": "TTAGGTACCGGTATCGGTTAGTGCTAG", "fitted relative affinity": "5.27 z-score"}
